Results of several laboratories.
Parts stem from different laboratories: compare values within a part only.
UniProt P53778, sequence (whole entry, looked up): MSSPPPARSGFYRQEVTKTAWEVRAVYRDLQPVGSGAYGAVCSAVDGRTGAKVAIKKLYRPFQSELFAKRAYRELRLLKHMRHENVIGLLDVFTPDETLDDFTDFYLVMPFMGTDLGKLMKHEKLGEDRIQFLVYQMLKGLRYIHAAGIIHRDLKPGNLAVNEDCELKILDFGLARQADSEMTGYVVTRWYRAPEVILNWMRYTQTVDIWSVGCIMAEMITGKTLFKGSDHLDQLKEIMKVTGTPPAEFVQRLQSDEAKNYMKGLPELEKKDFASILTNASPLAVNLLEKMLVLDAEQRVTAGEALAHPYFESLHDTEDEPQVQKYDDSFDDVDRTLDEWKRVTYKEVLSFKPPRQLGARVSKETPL
UniProt Q9Y6R4, sequence (whole entry, looked up): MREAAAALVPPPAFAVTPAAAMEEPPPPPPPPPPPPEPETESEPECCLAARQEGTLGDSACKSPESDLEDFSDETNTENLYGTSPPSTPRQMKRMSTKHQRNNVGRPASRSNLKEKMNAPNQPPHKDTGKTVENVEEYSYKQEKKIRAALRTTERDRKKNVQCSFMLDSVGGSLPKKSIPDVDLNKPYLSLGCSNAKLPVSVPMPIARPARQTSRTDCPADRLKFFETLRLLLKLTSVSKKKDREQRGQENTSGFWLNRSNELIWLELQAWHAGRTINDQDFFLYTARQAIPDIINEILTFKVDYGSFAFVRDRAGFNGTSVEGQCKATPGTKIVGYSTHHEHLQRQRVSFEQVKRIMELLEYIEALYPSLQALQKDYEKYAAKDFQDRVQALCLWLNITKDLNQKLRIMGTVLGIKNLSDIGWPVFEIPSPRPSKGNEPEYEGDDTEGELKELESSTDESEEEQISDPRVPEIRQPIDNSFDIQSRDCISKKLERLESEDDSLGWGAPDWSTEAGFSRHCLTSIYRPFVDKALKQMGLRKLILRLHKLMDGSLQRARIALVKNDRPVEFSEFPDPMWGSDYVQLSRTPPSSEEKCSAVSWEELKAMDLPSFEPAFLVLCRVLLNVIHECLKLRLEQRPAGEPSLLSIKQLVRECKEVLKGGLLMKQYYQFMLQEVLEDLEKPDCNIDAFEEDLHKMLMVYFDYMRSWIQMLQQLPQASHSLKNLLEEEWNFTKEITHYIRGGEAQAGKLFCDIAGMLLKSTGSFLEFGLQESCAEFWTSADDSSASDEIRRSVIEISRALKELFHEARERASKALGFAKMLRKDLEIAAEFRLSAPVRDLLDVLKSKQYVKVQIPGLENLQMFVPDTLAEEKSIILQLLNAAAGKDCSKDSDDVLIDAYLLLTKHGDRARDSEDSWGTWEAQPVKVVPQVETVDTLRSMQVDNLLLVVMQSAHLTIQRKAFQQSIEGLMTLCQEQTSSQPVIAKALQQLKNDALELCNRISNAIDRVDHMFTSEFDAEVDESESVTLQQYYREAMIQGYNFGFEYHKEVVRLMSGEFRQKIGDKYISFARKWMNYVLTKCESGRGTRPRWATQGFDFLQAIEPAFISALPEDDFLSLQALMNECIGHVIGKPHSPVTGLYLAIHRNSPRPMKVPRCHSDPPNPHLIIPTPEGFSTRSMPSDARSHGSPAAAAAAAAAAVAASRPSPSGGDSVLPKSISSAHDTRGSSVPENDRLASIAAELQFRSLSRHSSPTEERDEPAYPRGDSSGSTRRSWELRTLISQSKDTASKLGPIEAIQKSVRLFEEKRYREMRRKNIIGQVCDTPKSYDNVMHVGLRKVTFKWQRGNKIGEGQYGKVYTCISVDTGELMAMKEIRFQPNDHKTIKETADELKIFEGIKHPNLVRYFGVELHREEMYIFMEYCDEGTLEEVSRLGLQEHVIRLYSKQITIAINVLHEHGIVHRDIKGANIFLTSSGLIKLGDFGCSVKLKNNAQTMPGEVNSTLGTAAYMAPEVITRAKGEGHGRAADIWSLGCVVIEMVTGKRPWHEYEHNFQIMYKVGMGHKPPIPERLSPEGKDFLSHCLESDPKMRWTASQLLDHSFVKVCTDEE
UniProt P49137, sequence (whole entry, looked up): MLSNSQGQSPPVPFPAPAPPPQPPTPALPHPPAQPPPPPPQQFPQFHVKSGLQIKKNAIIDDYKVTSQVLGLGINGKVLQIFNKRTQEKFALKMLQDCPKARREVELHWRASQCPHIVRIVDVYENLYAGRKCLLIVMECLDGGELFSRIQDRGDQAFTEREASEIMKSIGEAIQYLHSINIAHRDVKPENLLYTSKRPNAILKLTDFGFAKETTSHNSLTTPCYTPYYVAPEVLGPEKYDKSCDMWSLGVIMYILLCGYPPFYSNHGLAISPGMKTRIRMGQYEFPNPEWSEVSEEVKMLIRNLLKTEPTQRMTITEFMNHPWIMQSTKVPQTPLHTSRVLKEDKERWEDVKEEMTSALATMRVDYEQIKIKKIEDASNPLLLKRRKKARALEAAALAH
UniProt P41743, sequence (whole entry, looked up): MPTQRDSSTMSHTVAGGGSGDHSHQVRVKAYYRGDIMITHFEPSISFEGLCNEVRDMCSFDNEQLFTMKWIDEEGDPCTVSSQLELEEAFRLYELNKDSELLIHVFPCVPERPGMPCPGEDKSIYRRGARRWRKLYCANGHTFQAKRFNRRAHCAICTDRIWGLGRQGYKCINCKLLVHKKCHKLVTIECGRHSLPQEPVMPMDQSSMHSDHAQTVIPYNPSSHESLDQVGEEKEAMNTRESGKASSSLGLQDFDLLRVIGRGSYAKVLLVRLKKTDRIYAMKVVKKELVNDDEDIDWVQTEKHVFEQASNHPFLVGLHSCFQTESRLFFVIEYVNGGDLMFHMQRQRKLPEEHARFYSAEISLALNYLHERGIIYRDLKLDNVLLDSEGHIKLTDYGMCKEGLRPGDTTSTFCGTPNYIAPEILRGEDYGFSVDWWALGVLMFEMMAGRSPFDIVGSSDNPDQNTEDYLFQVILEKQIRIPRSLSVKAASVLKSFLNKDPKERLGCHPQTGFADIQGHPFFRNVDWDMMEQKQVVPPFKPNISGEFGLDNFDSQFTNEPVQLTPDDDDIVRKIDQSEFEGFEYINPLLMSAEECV
UniProt Q6P3R8, sequence (whole entry, looked up): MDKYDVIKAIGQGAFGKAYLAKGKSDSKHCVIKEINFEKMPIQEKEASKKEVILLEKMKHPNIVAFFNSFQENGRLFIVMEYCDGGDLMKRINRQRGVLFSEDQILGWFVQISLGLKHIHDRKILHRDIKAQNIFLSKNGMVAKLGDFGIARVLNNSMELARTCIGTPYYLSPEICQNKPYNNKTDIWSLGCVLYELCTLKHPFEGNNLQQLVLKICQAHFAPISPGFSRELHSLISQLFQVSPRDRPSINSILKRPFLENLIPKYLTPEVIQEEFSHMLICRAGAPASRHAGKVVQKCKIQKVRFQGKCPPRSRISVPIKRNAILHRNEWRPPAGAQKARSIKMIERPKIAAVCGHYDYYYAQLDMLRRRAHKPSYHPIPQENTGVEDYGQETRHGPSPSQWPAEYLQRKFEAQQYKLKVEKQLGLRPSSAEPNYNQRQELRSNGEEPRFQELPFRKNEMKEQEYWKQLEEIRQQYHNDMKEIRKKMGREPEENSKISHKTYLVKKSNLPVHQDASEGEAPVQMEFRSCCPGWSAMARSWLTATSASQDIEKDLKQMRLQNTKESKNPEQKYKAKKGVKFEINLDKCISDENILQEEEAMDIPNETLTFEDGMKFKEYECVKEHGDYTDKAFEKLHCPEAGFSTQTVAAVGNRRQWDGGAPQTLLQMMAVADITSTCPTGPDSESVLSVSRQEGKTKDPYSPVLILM
UniProt Q9C098, sequence (whole entry, looked up): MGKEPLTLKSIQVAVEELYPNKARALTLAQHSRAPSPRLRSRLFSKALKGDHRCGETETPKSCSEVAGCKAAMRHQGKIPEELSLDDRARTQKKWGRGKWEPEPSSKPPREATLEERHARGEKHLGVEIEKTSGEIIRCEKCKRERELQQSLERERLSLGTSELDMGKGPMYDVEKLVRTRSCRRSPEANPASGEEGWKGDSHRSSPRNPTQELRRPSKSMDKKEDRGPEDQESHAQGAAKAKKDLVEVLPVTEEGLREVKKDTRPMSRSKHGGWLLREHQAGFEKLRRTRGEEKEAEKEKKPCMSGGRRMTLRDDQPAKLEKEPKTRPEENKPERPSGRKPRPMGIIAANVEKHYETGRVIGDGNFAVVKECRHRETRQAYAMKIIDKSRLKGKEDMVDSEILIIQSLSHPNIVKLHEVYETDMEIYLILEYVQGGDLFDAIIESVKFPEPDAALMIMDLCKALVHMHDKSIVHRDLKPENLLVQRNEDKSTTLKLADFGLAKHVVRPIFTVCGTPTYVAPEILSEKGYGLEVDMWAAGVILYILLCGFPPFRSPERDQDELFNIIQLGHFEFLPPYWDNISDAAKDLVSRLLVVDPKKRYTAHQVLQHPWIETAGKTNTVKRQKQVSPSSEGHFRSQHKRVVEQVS

Set 1 — effect on: enzyme activity; mode: inhibitor; tested at: 0.5 µM; baseline: control; quantity: remaining activity
Target: Mitogen-activated protein kinase 8 (MAPK8, Homo sapiens, UniProt P45983)
UniProt P45983, sequence (whole entry, looked up): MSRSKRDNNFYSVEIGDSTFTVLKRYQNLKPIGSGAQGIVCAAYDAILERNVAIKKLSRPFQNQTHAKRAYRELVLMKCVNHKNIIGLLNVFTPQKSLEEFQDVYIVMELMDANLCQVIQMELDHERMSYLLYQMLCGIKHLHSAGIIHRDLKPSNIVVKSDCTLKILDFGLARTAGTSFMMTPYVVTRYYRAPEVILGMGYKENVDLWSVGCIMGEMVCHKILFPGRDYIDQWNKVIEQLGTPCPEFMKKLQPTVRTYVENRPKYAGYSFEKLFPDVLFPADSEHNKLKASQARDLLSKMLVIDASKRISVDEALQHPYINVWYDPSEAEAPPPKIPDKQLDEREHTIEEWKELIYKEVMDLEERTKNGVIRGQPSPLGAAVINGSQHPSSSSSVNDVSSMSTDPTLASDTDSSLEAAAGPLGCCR
Oc1ccc(-c2nc(-c3ccncc3)c(-c3ccc(F)cc3)[nH]2)cc1: 98%
Cc1ccc(NC(=O)c2ccc(CN3CCN(C)CC3)cc2)cc1Nc1nc(-c2cccnc2)cs1: 107%
O=C(Nc1cccc(Nc2cc(Nc3cccc(C(F)(F)F)c3)ncn2)c1)C1CC1: 93.4%
O=C1NC(=O)C(c2cn(CCCn3ccnc3)c3ccccc23)=C1Nc1ccccc1: 99.6%
CCOC(=O)c1c(C)[nH]c(/C=C2\C(=O)Nc3ccccc32)c1C: 106%
Nc1ccc2ncnc(NCCc3ccc(Oc4ccccc4)cc3)c2c1: 104%
COc1ccc(CNC(=O)Nc2ncc([N+](=O)[O-])s2)cc1: 104%
Nc1ncnc2n[nH]c(Nc3ccc(F)cc3)c12: 111%
COc1ccc(OC)c2c(=S)c3ccccc3[nH]c12: 96.8%
Cc1cccc(-c2[nH]c(C(C)(C)C)nc2-c2ccc3c(c2)OCO3)n1: 95.7%
CO[C@H]1C[C@@H]2CC[C@@H](C)[C@@](O)(O2)C(=O)C(=O)N2CCCC[C@H]2C(=O)O[C@H]([C@H](C)C[C@@H]2CC[C@@H](O)[C@H](OC)C2)CC(=O)[C@H](C)/C=C(\C)[C@@H](O)[C@@H](OC)C(=O)[C@H](C)C[C@H](C)/C=C/C=C/C=C/1C: 100%
COc1ccc(C(=O)Nc2sc3c(c2C(N)=O)CCCC3)cc1OC: 94.7%
Nc1[nH]nc2nc3ccccc3nc12: 89.6%
O=C1NC(=O)C(c2cn(CCCO)c3ncccc23)=C1c1cnccn1: 99.6%
Cc1nc(-c2ccccc2)c(-c2ccncc2)o1: 99.5%

Set 2 — effect on: cell-free assay; method: competition with immobilised ligand; tested at: 1 µM; quantity: remaining binding
SMILES: CC1=C(C#N)[C@@H](c2ccc3[nH]nc(C)c3c2)C(C#N)=C(c2ccc(Cl)cc2)N1
Ephrin type-A receptor 7 (EPHA7, Homo sapiens, UniProt Q15375): 91.2%
Dual specificity protein kinase TTK (TTK, Homo sapiens, UniProt P33981): 75.7%
BMP-2-inducible protein kinase (BMP2K, Homo sapiens, UniProt Q9NSY1): 100%
Casein kinase I isoform delta (CSNK1D, Homo sapiens, UniProt P48730): 100%
Mitogen-activated protein kinase kinase kinase 4 (MAP3K4, Homo sapiens, UniProt Q9Y6R4): 67.9%
Tyrosine-protein kinase HCK (HCK, Homo sapiens, UniProt P08631): 100%
Phosphatidylinositol 4,5-bisphosphate 3-kinase catalytic subunit alpha isoform (PIK3CA, Homo sapiens, UniProt P42336, E542K): 78.6%
Serine/threonine-protein kinase Nek5 (NEK5, Homo sapiens, UniProt Q6P3R8): 80.3%

Set 3 — effect on: kinase activity; mode: inhibitor; tested at: 1 µM; quantity: remaining activity
Compound: CC(C)S(=O)(=O)c1ccc2nccc(Nc3ccc4sc(C5CCCC5)nc4c3)c2c1.Cl
MAP kinase-activated protein kinase 2 (MAPKAPK2, Homo sapiens, UniProt P49137): 103%
Protein kinase C iota type (PRKCI, Homo sapiens, UniProt P41743): 105%
Serine/threonine-protein kinase LATS2 (LATS2, Homo sapiens, UniProt Q9NRM7): 109%
Serine/threonine-protein kinase DCLK3 (DCLK3, Homo sapiens, UniProt Q9C098): 97%
Beta-adrenergic receptor kinase 1 (GRK2, Homo sapiens, UniProt P25098): 90%
Mitogen-activated protein kinase 12 (MAPK12, Homo sapiens, UniProt P53778): 101%
Serine/threonine-protein kinase ICK (CILK1, Homo sapiens, UniProt Q9UPZ9): 82%
Dual specificity tyrosine-phosphorylation-regulated kinase 1A (DYRK1A, Homo sapiens, UniProt Q13627): 96%
STE20-like serine/threonine-protein kinase (SLK, Homo sapiens, UniProt Q9H2G2): 93%

Further values, each from its own experiment
CC(C)n1cnc(-c2ccc(F)cc2)c1-c1ncc(C(=O)Nc2ccc(N3CCN(C)CC3)cc2)[nH]1  Dyspnoea incidence (IPF patients; 30 mg once daily, adverse event): 0%

A few entries again (set 1):
COc1ccc(OC)c2c(=S)c3ccccc3[nH]c12: 96.8%
O=C1NC(=O)C(c2cn(CCCn3ccnc3)c3ccccc23)=C1Nc1ccccc1: 99.6%
O=C1NC(=O)C(c2cn(CCCO)c3ncccc23)=C1c1cnccn1: 99.6%
Nc1ccc2ncnc(NCCc3ccc(Oc4ccccc4)cc3)c2c1: 104%
Nc1ncnc2n[nH]c(Nc3ccc(F)cc3)c12: 111%
